Assay results gathered from unrelated publications.
Compare with care: the assays were run in different laboratories. Numbers after ± are the reported error.
Ugcg: Ceramide glucosyltransferase (Ugcg, Mus musculus, UniProt O88693)
UniProt O88693, sequence (whole entry, looked up): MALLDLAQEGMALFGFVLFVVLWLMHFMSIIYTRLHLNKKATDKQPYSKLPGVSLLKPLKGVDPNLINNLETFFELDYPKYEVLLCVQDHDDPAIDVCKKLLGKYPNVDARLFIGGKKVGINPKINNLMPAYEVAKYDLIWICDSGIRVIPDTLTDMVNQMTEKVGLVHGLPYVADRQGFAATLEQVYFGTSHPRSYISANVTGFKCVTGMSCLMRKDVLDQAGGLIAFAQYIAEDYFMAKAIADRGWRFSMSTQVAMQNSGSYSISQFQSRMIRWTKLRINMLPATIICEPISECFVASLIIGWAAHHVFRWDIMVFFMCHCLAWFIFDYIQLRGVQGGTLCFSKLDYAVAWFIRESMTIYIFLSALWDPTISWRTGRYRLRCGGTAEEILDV
UniProt P06239, sequence (whole entry, looked up): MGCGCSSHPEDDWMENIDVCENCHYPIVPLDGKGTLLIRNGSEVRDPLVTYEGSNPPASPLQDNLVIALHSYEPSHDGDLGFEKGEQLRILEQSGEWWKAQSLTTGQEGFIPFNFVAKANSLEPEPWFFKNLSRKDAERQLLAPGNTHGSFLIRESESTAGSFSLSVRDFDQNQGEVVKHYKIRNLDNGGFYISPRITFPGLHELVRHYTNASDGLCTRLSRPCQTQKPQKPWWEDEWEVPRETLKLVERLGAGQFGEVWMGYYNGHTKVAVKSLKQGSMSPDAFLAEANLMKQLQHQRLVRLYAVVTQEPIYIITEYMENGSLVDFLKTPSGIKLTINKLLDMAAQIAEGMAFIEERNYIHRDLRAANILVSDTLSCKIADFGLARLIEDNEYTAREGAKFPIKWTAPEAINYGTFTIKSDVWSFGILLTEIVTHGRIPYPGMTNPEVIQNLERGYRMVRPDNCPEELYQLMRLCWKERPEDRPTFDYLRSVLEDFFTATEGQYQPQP
UniProt Q13153, sequence (whole entry, looked up): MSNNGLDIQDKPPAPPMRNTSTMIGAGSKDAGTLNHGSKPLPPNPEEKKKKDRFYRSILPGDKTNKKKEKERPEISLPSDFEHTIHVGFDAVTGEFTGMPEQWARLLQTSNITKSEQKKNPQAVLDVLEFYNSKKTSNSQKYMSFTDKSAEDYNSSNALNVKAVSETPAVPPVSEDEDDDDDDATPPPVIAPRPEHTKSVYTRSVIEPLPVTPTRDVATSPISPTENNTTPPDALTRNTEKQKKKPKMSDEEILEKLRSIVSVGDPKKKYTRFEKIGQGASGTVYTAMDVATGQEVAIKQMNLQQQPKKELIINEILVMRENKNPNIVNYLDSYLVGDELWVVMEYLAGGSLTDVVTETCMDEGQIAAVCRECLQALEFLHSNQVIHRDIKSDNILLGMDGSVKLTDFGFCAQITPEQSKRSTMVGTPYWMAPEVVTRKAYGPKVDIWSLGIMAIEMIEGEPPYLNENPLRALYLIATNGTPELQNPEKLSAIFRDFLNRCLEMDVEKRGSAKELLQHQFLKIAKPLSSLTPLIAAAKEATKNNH
UniProt P07332, sequence (whole entry, looked up): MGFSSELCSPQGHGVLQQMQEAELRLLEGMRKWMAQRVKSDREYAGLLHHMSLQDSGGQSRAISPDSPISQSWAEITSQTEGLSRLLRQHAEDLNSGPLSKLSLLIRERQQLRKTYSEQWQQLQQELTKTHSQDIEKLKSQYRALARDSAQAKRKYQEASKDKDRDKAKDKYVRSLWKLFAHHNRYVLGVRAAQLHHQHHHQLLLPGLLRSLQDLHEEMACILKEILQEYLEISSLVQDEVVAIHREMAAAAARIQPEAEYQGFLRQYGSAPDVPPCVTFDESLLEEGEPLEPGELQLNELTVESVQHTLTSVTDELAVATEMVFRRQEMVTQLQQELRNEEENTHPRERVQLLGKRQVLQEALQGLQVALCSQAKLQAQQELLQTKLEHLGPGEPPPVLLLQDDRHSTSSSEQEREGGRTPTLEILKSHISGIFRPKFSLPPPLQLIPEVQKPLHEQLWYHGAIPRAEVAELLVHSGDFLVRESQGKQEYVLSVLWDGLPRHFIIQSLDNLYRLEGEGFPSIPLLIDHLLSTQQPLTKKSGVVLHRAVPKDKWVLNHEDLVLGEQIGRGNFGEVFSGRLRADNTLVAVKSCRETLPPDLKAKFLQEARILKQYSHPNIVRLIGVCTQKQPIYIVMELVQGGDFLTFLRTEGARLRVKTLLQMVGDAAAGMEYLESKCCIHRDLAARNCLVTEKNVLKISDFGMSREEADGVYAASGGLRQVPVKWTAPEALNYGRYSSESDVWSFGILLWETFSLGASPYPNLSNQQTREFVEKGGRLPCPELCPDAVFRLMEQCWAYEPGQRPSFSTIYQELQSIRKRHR
UniProt P35462, sequence (whole entry, looked up): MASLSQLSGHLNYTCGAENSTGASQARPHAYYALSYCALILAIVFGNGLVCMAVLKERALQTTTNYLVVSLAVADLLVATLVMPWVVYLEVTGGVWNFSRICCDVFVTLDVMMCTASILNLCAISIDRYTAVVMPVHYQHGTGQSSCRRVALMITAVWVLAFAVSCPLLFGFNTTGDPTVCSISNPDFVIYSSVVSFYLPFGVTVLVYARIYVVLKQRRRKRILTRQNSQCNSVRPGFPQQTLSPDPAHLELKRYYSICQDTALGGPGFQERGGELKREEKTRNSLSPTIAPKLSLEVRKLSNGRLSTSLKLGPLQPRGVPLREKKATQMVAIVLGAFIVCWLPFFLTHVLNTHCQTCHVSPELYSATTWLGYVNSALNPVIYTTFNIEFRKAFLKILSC

With `CCc1nc2cc3ccccc3cc2cc1C(=O)N1CCC[C@H]1C(=O)N[C@@H](C/C=C\C[C@H](NC(=O)[C@@H]1CCCN1C(=O)c1cc2cc3ccccc3cc2nc1CC)C(=O)N[C@@H](CCCCN)C(=O)NCCCN)C(=O)N[C@@H](CCCCN)C(=O)NCCCN` the Kd was 21 nM ((CUG)2 RNA; SPR).
For `CCCCCCCN1C[C@H](O)[C@@H](O)[C@H](O)[C@@H]1CO`, the IC50 was 4000 nM (Ugcg; enzyme activity, inhibitor, fluorescence).
The Kd of `COC1(C2=NCCN2)COc2ccccc2O1` (stereo not drawn) is reported as 3.58 ± 1.1 nM (α2-adrenergic receptor chimera; [3H]compound saturation binding; HEK293 membranes; α2c(NT-TM7)/α2a(CT)-AR chimera).
`CCn1nc(Cl)c2c1-c1cnc(N)c(c1)O[C@H](C)c1cc(F)ccc1-c1nn(C)cc1C2` has an IC50 of 415 nM (Tyrosine-protein kinase Fes/Fps (FES, Homo sapiens, UniProt P07332); enzyme activity, inhibitor, radiometric).
For `Cc1nn(-c2cccc(N)c2)c(=O)c2cnc(Nc3ccc(N4CCNCC4)cc3)nc12`, the IC50 was 2130 nM (Serine/threonine-protein kinase PAK 1 (PAK1, Homo sapiens, UniProt Q13153); enzyme activity, inhibitor).
The IC50 of `CC(C)=CCC/C(C)=C/CC/C(C)=C/CN1C[C@H](O)[C@@H](O)[C@H](O)[C@H]1CO` is reported as 2900 nM (Ugcg; enzyme activity, inhibitor, fluorescence).
`CCN(CC)CC(=O)Nc1cccc(-n2cc(-c3ccc4ccc(-c5cn(-c6cccc(NC(=O)CN(CC)CC)c6)nn5)cc4c3)nn2)c1` has an IC50 of over 10000 nM (Tyrosine-protein kinase Lck (LCK, Homo sapiens, UniProt P06239); enzyme activity, inhibitor).
`CCCCCOCCCCCN1C[C@H](O)[C@@H](O)[C@H](O)[C@H]1CO` gave an IC50 of 2000 nM (Ugcg; enzyme activity, inhibitor, fluorescence).
For `CC(C)(CO)NCc1ccc(-c2cccc(C(F)(F)F)c2)o1`, the Ki was 472 nM (D(3) dopamine receptor (DRD3, Homo sapiens, UniProt P35462); ligand displacement, radioligand).

Repeated from above:
`CCn1nc(Cl)c2c1-c1cnc(N)c(c1)O[C@H](C)c1cc(F)ccc1-c1nn(C)cc1C2` has an IC50 of 415 nM (Tyrosine-protein kinase Fes/Fps (FES, Homo sapiens, UniProt P07332); enzyme activity, inhibitor, radiometric).
